Published values pooled from the literature.
Each numbered part is a random draw from the data of one study; scales do not carry over between parts. Positions count from the first letter of the parent shown.

Block 1
Target: Interferon regulatory factor 3, full length, phosphomimetic (IRF3, Homo sapiens, UniProt Q14653, residues 1-427, S386D/S396D/S398D/S402D/T404D/S405D)
Chain of UniProt Q14653 (whole entry, unmodified, looked up): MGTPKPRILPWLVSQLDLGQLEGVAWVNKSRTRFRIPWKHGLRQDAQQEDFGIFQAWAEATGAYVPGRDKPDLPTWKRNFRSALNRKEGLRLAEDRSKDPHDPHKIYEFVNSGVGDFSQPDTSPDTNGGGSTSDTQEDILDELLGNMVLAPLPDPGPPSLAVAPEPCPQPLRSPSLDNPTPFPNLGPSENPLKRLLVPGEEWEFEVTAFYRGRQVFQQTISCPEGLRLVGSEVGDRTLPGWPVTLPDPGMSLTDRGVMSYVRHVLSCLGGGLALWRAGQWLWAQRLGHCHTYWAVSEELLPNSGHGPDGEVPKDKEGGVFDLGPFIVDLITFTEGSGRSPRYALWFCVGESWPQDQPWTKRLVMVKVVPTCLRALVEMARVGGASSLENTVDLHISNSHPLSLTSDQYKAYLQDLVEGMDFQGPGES
Method: protein-binding microarray
Form: double-stranded DNA, one strand shown
Sample: in vitro
Tested at: 2540 nM top
Notes: 60-bp whole probe
With: salmon DNA 0.4 mg/ml
Baseline: random background probes
Reading: higher = stronger binding
Shared flanks, not repeated: GCCTAGCAC … GTCTTGATTCGCTTGACGCTGCTG
`TTAGGACTGGGGTATTGGTTAGTGCTA` — result for “fitted relative affinity”: -0.984 z-score.
Under “fitted relative affinity”, `GACGGTTTCGACTTTCAGGACGTGCTA` is recorded as 4.05 z-score.
For `TTAGGACTGGATTTTCGGTTAGTGCTA`, “fitted relative affinity” read 0.663 z-score.
`GAGTGTTTCTTCTGCTGACAGTGCTAG`: “fitted relative affinity” 0.76 z-score.
`TTAGATCGCAGTTTCGATTAGTGCTAG` — result for “fitted relative affinity”: 3.24 z-score.

Block 2
Target: ABI1, truncated, D143A, DHFR fusion (Arabidopsis thaliana)
Method: DHFR PCA, deep sequencing
Sample: yeast
Notes: methotrexate growth selection, single substitutions
With: (+)-ABA 0.11 µM
Baseline: wild-type fitted maximum
Reading: higher = stronger binding
Parent: PYL1, truncated, DHFR fusion (Arabidopsis thaliana); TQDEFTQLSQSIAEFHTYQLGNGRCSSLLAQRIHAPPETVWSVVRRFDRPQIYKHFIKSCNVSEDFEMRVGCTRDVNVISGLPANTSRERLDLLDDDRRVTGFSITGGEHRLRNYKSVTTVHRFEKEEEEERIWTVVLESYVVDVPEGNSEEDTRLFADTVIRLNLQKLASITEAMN; partner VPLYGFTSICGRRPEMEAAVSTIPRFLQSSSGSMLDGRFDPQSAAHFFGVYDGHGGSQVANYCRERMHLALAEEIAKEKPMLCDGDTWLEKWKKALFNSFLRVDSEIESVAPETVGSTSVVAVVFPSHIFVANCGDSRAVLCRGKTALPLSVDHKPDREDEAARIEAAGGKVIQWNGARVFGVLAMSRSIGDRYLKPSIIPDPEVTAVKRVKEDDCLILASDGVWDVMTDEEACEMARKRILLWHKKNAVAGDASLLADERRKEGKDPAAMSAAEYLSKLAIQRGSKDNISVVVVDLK
Under “relative binding score”, `T119A` is recorded as -5.77%.
`C72P` — result for “relative binding score”: 5.76%.
For `F103K`, “relative binding score” read -8.81%.
`S140R`: “relative binding score” 6.35%.
Under “relative binding score”, `S140Y` is recorded as 5.36%.

Block 3
Target: RNA binding protein fox-1 homolog 2, RRM domain, GST-SBP tag (RBFOX2, Homo sapiens, UniProt O43251-10, residues 100-194)
Method: RNA Bind-n-Seq
Form: RNA
Sample: in vitro
Tested at: 365 nM
Notes: natural RNA segment, single round, ends assumed
Baseline: no-protein control
Reading: higher = stronger binding
Shared flanks, not repeated: GGGAGUUCUACAGUCCGACGAUC … UGGAAUUCUCGGGUGCCAA
Residues (chain): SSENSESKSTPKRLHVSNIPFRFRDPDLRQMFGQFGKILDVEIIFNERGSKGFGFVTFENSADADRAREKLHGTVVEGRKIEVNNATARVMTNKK
`UUUUAAAAAAAAUAAAAUUUAACAGUUAUCAGCUGAUAGGCAAGUCAUUGAAAAAGUAAUUUUACGUCUGGCUGGUGAGAGUAAAGUUGGAAAAAUAAUUUUGCAUUUUU` — result for “RBNS enrichment (R)”: 1.02.
`AAGUCUUUGUAGCCAAAUGUGACUAGUGGCUACCAUAUUAGACAGUGCAGAUCUAUACUCAUUCCUUCAAAUACAUUACUCUGUUAAUCUCAAAGUGUGGCCAACUCCCA` — result for “RBNS enrichment (R)”: 0.626.
`GGGUUGGACAGUGAAUCUUAAGAUUUCAUCCUUCAUUCAGUAAGCAUUUGAGUACCUACUGUGAGCAGGCAUUGGGGCGGAGCAGCGAGAGCCCUGCCGAUGUUGGGUUC` — result for “RBNS enrichment (R)”: 0.382.
Under “RBNS enrichment (R)”, `UAGUUCGAAGGAUGCCGCCGUGCUGUCUGUGGCCGCCCUCCCAUGUCCUGUCCCCUGUAGCUGCUUUCUUAGAUGGAAACAGGCUAACGAAGAGAGGGACACUGUCGUGU` is recorded as 0.211.
For `AGAGUCGGCAAGCAGGUGCCAGAUUUUCUAUCCCAUCAGCCAGUGCUUCACCAGGUGCAGGCUGCUAUGGGCUUGUGGAAACCACAGGUACAGGUGGGAUUUCAUGGGUC`, “RBNS enrichment (R)” read 0.325.
For `AUGCCUUUGCAGUGGUCUCCCGGGCAUUGGGCAGGGCCUAGCCUUUUGCAGCCCCCAGAGGACCUUGCCUGCAUAAAGCACUCAGAAGGGUUAGCCACCUGGUGAUUUUG`, “RBNS enrichment (R)” read 0.41.
Under “RBNS enrichment (R)”, `AAAGCCCCCAUCAGAACUGCUGGUACUUGAAUCCUCAGAUACUUUAUAGGAGCCCUUGAAUGAAGCUGUGAAUGGAGAGGUUUUCUCUAUAAACCUAUGUGGUAGCCCCC` is recorded as 0.745.

Mixed results
`PhoQ, residues 284 288 289 292 302 303 ASTSDA` has a fold induction of 8.45 (PhoP, residues 12 14 15 18 19 NQGLL (Escherichia coli, UniProt P23836); Sort-seq, measured: YFP reporter; E. coli; PhoQ-PhoP variant library, with: 10 µM Mg2+; baseline: high Mg2+ state, higher = stronger signaling).

For quick reference, copied from above (block 3):
Under “RBNS enrichment (R)”, `UAGUUCGAAGGAUGCCGCCGUGCUGUCUGUGGCCGCCCUCCCAUGUCCUGUCCCCUGUAGCUGCUUUCUUAGAUGGAAACAGGCUAACGAAGAGAGGGACACUGUCGUGU` is recorded as 0.211.
For `AGAGUCGGCAAGCAGGUGCCAGAUUUUCUAUCCCAUCAGCCAGUGCUUCACCAGGUGCAGGCUGCUAUGGGCUUGUGGAAACCACAGGUACAGGUGGGAUUUCAUGGGUC`, “RBNS enrichment (R)” read 0.325.
For `AUGCCUUUGCAGUGGUCUCCCGGGCAUUGGGCAGGGCCUAGCCUUUUGCAGCCCCCAGAGGACCUUGCCUGCAUAAAGCACUCAGAAGGGUUAGCCACCUGGUGAUUUUG`, “RBNS enrichment (R)” read 0.41.
